Measured values collected from several papers.
A part holds a random share of what one study measured. Changes are numbered by the printed parent chain.

Study 1 — method: protein-binding microarray; molecule type: double-stranded DNA, one strand shown; medium: in vitro; tested at: 250 nM; notes: 60-bp whole probe; added: salmon DNA 0.4 mg/ml; relative to: random background probes; reading: higher = stronger binding; shared flanks, not repeated: GCCTAGCAC … GTCTTGATTCGCTTGACGCTGCTG
Target: Interferon regulatory factor 5, full length, phosphomimetic (IRF5, Homo sapiens, UniProt Q13568-2, residues 1-514, K96S/S451D/S453D/S456D/S462D)
Strand	log fluorescence
TTAGGACTGGGGTTTCGCTTAGTGCTA	1.91 z-score
GACGGTTTCGTTATCGGGACGTGCTAG	7.39 z-score
GACGATCTCAGTTTCGAGCCGTGCTAG	3.62 z-score
AGTATGTTCACTATTTAAGAGTGCTAG	0.501 z-score
GACGATTTCAGTCACGAGACGTGCTAG	1.22 z-score
CAGCATGCCTGTCCCTGGGTGTGCTAG	-0.516 z-score
TCATACATCTCTCTTAAACTGTGCTAG	0.398 z-score
AACGATTCCAGTTTCGAGACGTGCTAG	6 z-score
TACTTTCTATGTCTGTTTTTGTGCTAG	7.3 z-score
TTAGGTTTCAACTTTCGGTTAGTGCTA	9.68 z-score
TTAGATTTCGGGACTGGTTTAGTGCTA	2.64 z-score
TTAGATCTCAGACTGGATTCGTGCTAG	-0.258 z-score
TTACGTATCCTACTGCTTTAGTGCTAG	0.682 z-score
TCCCCTCTAGGTTCTCTGAAGGTGCTA	-0.366 z-score
TTAGGTATCGACTATCGGTGAGTGCTA	6.67 z-score
TTCGGTATCGGTTTCGGTTAGTGCTAG	11.3 z-score
TCACCTTTCTCTTGGAGACTGTGCTAG	0.846 z-score
GACGGACTGGGGTGTCGGGACGTGCTA	-0.531 z-score
TTAGATATCCGACTGGATTAGTGCTAG	-0.0652 z-score
GACGGACTGGGGTATTGGGACGTGCTA	-0.657 z-score
TCACATTTTTTTTTTCTACTGTGCTAG	1.35 z-score
GACGGTTTCCTACTGCTCACGTGCTAG	0.307 z-score
TTAGAACTGGGGGATCGATTAGTGCTA	0.59 z-score
TTAGGTATCCTACAGCTTTAGTGCTAG	-0.0884 z-score
GACTGACTGGACTATCGGGACGTGCTA	0.896 z-score

Study 2 — target: CCNB3, cyclin fold, Cln2 fusion (human); method: yeast growth competition, sequencing; medium: yeast; notes: strong parent motif; relative to: not given; reading: higher = stronger binding
Starting sequence: SCAPER docking peptide (human); SNARRSLNFGGST; partner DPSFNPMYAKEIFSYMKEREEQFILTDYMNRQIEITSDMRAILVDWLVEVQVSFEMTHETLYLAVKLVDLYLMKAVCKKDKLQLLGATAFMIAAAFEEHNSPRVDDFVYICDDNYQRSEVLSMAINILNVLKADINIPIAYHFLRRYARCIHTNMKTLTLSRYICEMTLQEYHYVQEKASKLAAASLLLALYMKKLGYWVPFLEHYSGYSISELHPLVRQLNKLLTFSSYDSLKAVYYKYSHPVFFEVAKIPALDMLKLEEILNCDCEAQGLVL
Change	normalised enrichment score
SNARRSHNFGGST [L7H]	0.345
SNARRHLNFGGST [S6H]	0.988
SNARRSLNFGGNT [S12N]	1.85
SNARRSLNFGGGT [S12G]	1.48
SSARRSLNFGGST [N2S]	1.7
SQARRSLNFGGST [N2Q]	1.32
SNARRSLNFYGST [G10Y]	0.911
SNARRSDNFGGST [L7D]	0.745
SNARRSLNFRGST [G10R]	0.35
SNARRSLNFGGSK [T13K]	1.44
SNARRSLNFGGSF [T13F]	1.21
SNARRSLNFQGST [G10Q]	0.733
SNAARSLNFGGST [R4A]	0.261
SNARRSLNFGGRT [S12R]	0.327
SNASRSLNFGGST [R4S]	-0.12
SNARRSLNFGGSH [T13H]	1.2
SNATRSLNFGGST [R4T]	0.553
SNARRFLNFGGST [S6F]	0.872
SNARRSLNFGFST [G11F]	1.05
SNARRSLNFGCST [G11C]	1.22
SNARRSLNFGWST [G11W]	0.71
WNARRSLNFGGST [S1W]	2.79
SNARRSLNFCGST [G10C]	0.611
SNARRDLNFGGST [S6D]	0.252
SNARRSLNCGGST [F9C]	0.0686

Study 3 — method: protein binding microarray; molecule type: double-stranded DNA, one strand shown; medium: in vitro; tested at: not given; relative to: not given; reading: higher = stronger binding
Target: Histone acetyltransferase KAT6A, winged helix 1, GST fusion (KAT6A, Homo sapiens, UniProt Q92794, residues 1-85)
Notes: 8-mer, flanks averaged, mean of 2 arrays, mostly near background
Residues (chain): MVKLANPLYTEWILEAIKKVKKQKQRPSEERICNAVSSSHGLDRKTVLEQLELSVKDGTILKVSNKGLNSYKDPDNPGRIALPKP
Strand	E-score
TCTGGTCA	-0.311
CCGGGCAC	0.256
ACAAGCTG	-0.171
ATGCTGTC	-0.225
ACACTCAG	-0.144
GACCAACA	-0.192
ACCCCCAC	0.0237
CTTCGACC	-0.0616
AATGTACC	0.0579
GGCTTGAC	-0.158
GCAGCTAA	-0.116
CTCAGTAA	0.0523
CGAAGCAA	-0.0811
CTATAGTC	-0.0238
ACATATGG	-0.0717
GTAGAAGA	-0.109
GATATCAC	-0.106
AGCCCGTG	0.219
GGATATGA	0.0642
GGTCGGTA	0.158
AAGAACTT	-0.101
ATGGAACC	0.0519
CTAACATC	-0.096
GATGGACA	-0.0287
CTGCGTCA	0.0643

Study 4 — method: universal PBM; molecule type: double-stranded DNA, one strand shown; medium: in vitro; tested at: 600 nM; reading: higher = stronger binding
Target: Sal-like protein 4, full length isoform A (SALL4, Homo sapiens, UniProt Q9UJQ4, residues 1-1053)
Chain of UniProt Q9UJQ4 (whole entry, looked up): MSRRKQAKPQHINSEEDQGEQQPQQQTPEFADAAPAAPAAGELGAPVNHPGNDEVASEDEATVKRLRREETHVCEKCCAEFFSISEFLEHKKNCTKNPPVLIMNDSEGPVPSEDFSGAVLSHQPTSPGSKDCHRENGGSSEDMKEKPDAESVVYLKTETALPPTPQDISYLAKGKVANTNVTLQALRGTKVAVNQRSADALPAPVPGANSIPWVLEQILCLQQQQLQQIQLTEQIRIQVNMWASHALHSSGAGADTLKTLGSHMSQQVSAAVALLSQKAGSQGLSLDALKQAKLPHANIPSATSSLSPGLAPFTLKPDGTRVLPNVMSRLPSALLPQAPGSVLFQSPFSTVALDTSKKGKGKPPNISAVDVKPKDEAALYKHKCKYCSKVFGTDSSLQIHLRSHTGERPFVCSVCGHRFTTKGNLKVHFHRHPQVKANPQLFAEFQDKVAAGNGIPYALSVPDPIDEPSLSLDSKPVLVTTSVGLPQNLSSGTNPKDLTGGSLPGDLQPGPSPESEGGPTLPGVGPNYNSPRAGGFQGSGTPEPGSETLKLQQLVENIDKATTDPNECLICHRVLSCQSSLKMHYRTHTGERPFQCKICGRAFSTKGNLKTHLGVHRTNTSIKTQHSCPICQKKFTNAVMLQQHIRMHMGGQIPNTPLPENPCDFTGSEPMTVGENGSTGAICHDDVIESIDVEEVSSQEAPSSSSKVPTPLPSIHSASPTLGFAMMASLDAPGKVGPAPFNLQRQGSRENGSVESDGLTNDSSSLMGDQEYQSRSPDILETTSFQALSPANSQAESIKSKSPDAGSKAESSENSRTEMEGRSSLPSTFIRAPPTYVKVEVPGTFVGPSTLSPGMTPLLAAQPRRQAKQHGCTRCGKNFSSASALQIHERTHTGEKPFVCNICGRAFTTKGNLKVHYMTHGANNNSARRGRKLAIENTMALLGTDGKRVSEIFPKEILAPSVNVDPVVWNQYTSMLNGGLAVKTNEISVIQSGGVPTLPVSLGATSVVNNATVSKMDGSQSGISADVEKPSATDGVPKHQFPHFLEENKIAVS
Notes: 8-mer, flanks averaged, mean of replicates
Strand	E-score
GAGTCTGA	-0.165
CGGCCGGC	-0.398
TCTGGACA	-0.0676
ATGTTATC	0.186
CCCTAGGG	-0.3
CCAGTAGC	-0.166
AAAGTATG	0.247
CGCAGACA	-0.131
ACCCGCTG	-0.253
CATGACAA	-0.0207
ATCTAAAA	0.19
AGATGGTG	-0.0836
CACGTTGA	-0.0937
GGGAGATA	0.0522
GACGGACC	-0.278
CTGGTGTC	-0.206
ACACGGCC	-0.18
ATCTAAGA	0.143
AATGACTC	0.11
AATCTTGC	0.216
GACCTATC	-0.0516
ATCGGGGA	-0.0013
ACTCATGA	0.178
AGCCCCGC	-0.279
CCCGCCCA	-0.107

Study 5 — method: DHFR PCA, deep sequencing; medium: yeast; added: (+)-ABA 0.032 µM; relative to: wild-type fitted maximum; reading: higher = stronger binding
Target: ABI1, truncated, D143A, DHFR fusion (Arabidopsis thaliana)
Notes: methotrexate growth selection, single substitutions
Starting sequence: PYL1, truncated, DHFR fusion (Arabidopsis thaliana); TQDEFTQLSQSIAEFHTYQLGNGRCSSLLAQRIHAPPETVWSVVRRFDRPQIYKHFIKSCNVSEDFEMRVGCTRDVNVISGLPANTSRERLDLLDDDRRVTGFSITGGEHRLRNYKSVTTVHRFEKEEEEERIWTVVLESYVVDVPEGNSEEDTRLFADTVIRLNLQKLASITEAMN; partner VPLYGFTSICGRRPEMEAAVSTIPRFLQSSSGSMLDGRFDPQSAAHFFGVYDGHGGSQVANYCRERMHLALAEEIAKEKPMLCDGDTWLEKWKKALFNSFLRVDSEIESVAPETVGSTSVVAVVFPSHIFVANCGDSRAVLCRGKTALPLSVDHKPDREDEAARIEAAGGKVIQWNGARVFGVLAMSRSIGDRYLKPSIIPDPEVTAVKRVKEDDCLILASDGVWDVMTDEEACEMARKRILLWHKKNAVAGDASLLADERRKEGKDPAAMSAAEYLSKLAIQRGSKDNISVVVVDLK
Change	relative binding score [%]
E125A	43.5
V142P	-1.7
F15L	2.12
T173P	-1.03
I79R	1.34
T119G	1.84
E14Y	0.72
F47K	-1.07
C72T	5.27
S117Q	6.99
R24G	3.1
F124W	26.2
N149C	50.2
V137M	1.71
R155C	0.456
H110W	90.2
D95Y	-1.23
E131N	61
I52N	5.21
W41V	-0.977

Study 6 — method: RNA Bind-n-Seq; molecule type: RNA; medium: in vitro; tested at: 200 nM; notes: whole 134-nt RNA, ends assumed; added: 150 mM LiCl; relative to: input library; reading: higher = stronger binding; all molecules: 7-deaza-guanosine replaces G
Target: Ras GTPase-activating protein-binding protein 1, full length (G3BP1, Homo sapiens, UniProt Q13283)
Chain of UniProt Q13283 (whole entry, looked up): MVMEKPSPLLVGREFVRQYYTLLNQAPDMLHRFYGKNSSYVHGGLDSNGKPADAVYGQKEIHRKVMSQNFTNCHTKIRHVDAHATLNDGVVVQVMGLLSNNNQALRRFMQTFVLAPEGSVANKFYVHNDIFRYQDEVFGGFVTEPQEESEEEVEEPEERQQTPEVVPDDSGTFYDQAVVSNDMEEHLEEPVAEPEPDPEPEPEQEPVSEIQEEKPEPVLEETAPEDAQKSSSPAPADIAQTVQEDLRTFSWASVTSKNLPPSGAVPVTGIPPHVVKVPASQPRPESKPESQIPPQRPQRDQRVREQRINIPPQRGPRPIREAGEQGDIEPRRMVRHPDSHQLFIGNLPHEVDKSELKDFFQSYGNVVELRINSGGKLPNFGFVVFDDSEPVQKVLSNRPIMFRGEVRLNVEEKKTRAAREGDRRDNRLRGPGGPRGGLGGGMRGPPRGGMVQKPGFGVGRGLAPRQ
Shared flanks, not repeated: GGGAGUUCUACAGUCCGACGAUC … UGGAAUUCUCGGGUGUCAAGG
Strand	log2 enrichment
CCUCAAGUCCUGUGCUACACAUCGUAUGUACCGAAUCGGAGGAGGGGAGGGGAAAGUAUUAUGUUACGCCGUUCGGAUCUGCACUUCCAG	0.552
CUCAAGUCCUGUGCUACACAUCGUAUGUACCGAAUCGGGCCGGGGCCGGGCCGGAAAGUAUUAUGUUACGCCGUUCGGAUCUGCACUUCC	0.361
UCCUGUGCUACACAUCGUAUGUACCGAAUCGGUUUUUUUGGUUUUUUUGGUUUUUUUGGGAAAGUAUUAUGUUACGCCGUUCGGAUCUGC	0.248
ACCAUGCAGGUGGGCAUCUUUGGGAAGUGGGGCAAGGGGGGGAUAGGGAGGGGGGUACCACUUUGGGAACAGGUGGUCCCAGGUCGUUUC	0.22
AAGUCCUGUGCUACACAUCGUAUGUACCGAAUCGGGAAAGGGUGGGAAAAAAAGGGAAAGUAUUAUGUUACGCCGUUCGGAUCUGCACUU	-0.364
AGGCUAUGGAGGCUAUGAUGAUUACAAUGGCUAUAAUGAUGGCUAUGGAUUUGGGUCAGAUAGAUUUGGAAGAGGUAAGGUAAGAAUUGA	-0.4
CUCAAGUCCUGUGCUACACAUCGUAUGUACCGAAUCGGGGUGGGUGGGGUGGGAAAGUAUUAUGUUACGCCGUUCGGAUCUGCACUUCCA	-0.672
CACAGACAACACGCACCCACACAGACACAGAGGGAAGGGGAAAGGAUGGGGACAGGGUGCACAGCAGGGCGGGGUAGGACCCCAGCCCCU	-0.864
ACCAUGCAGGUGGGCAUCUUUGGGAAGUGGGGCAAGGGGGGGAUAGGGAGGGGGGUAACACUUAGGGAACAGGUGGUCCCAGGUCGUUUC	0.0629
AGUCCUGUGCUACACAUCGUAUGUACCGAAUCGGGGUUUGGGGUUUUUGGGGUGGGGAAAGUAUUAUGUUACGCCGUUCGGAUCUGCACU	0.34
UAACUUUAGAGGAGGAUCUGAUGGAUAUGGCAGUGGACGUAGAUUUGGGGAUGGCUAUAAUGGGUAUGGAGGAGGACCUGGAGGUGGCAA	0.0501

For quick reference, copied from above (study 1):
Strand	log fluorescence
AGTATGTTCACTATTTAAGAGTGCTAG	0.501 z-score
GACGATTTCAGTCACGAGACGTGCTAG	1.22 z-score
CAGCATGCCTGTCCCTGGGTGTGCTAG	-0.516 z-score
TCATACATCTCTCTTAAACTGTGCTAG	0.398 z-score
AACGATTCCAGTTTCGAGACGTGCTAG	6 z-score
TACTTTCTATGTCTGTTTTTGTGCTAG	7.3 z-score
TTAGGTTTCAACTTTCGGTTAGTGCTA	9.68 z-score
TTAGATTTCGGGACTGGTTTAGTGCTA	2.64 z-score
TTAGATCTCAGACTGGATTCGTGCTAG	-0.258 z-score
TTACGTATCCTACTGCTTTAGTGCTAG	0.682 z-score
TCCCCTCTAGGTTCTCTGAAGGTGCTA	-0.366 z-score
TTAGGTATCGACTATCGGTGAGTGCTA	6.67 z-score
TTCGGTATCGGTTTCGGTTAGTGCTAG	11.3 z-score
TCACCTTTCTCTTGGAGACTGTGCTAG	0.846 z-score
GACGGACTGGGGTGTCGGGACGTGCTA	-0.531 z-score
TTAGATATCCGACTGGATTAGTGCTAG	-0.0652 z-score
GACGGACTGGGGTATTGGGACGTGCTA	-0.657 z-score
TCACATTTTTTTTTTCTACTGTGCTAG	1.35 z-score
GACGGTTTCCTACTGCTCACGTGCTAG	0.307 z-score
TTAGAACTGGGGGATCGATTAGTGCTA	0.59 z-score
TTAGGTATCCTACAGCTTTAGTGCTAG	-0.0884 z-score
